Published values pooled from the literature.
Every numbered part comes from another study and shows a few of its results, in no order.

Series 1
Target: Sal-like protein 4, full length isoform B (SALL4, Homo sapiens, UniProt Q9UJQ4-2, residues 1-616)
Technique: universal PBM
Molecule type: double-stranded DNA, one strand shown
Medium: in vitro
Tested at: not given
Setting: 8-mer, flanks averaged, mean of replicates
Direction: higher = stronger binding
| Sequence | E-score |
| --- | --- |
| CACTCTGA | -0.22 |
| ACGTGATG | 0.0398 |
| ACATGCAG | 0.0707 |
| CACCTGCA | -0.181 |
| GCACTCTA | -0.0336 |
| AGGGAGTG | -0.203 |
| GTACCACA | 0.103 |
| CCAGGAAC | -0.32 |
| GAAGCCAA | -0.046 |
| AGCCGAGA | -0.188 |
| AGCACAGG | -0.217 |
| AGAAGGAA | -0.034 |
| ATTGGTTC | 0.0915 |
| ACAGTGTG | 0.069 |

Series 2
Target: RING finger protein unkempt homolog, zinc fingers 1-6, SBP tag (UNK, Homo sapiens, UniProt Q9C0B0, residues 30-357)
Chain of UniProt Q9C0B0 (30-357, looked up): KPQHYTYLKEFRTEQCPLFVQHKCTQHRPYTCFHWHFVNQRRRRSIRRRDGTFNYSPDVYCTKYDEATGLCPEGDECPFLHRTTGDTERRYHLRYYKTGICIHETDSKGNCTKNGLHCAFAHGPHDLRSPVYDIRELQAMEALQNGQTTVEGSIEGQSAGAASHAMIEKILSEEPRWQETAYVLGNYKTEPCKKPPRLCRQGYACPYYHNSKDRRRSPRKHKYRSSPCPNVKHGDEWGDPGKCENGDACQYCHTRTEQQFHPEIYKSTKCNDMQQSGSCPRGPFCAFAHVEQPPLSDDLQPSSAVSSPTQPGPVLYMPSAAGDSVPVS
Technique: RNA Bind-n-Seq
Molecule type: RNA
Medium: in vitro
Tested at: 100 nM
Setting: RNA with constant flanks, vertebrate orthologous sites, ends assumed
Baseline: input RNA pool
Direction: higher = stronger binding
Shared flanks, not repeated: GGGAGUUCUACAGUCCGACGAUC … CAACAGAGGAUUGAGCAUCA
| Sequence | bound/input enrichment |
| --- | --- |
| GGGACGCUUUGAUGUAAAAAUUGAAGUUAAGAGCUGAUCACAAGCACAGAUCUUUCCCACCAGCCAUUGAAAAAAAGUAAAAAAGAUAAAAACAAAAACCUACUAGUCUUGAACAAACUG | 0.706 ratio |
| UGUUUUAUGUCUUUGUGGGCAUGGGGGAUCAUGGGGGAUGGGCAGUGGGGGAUUGGAGGCUGGUGUCGUCAUUACCAAGUUUUCUUUUUGUGCUUUGUUUUCCCUUUUAAUUGGUUGCAU | 0.93 ratio |
| UACAUCUGGUGAUAUUUGGCCUGGCCUUUCAGCUUAUGAUAAUAGCCCCAGAUCACCCCACAGUCCUUCACCUAUUGCUACACCACCUAGUCAGAGUUCAUCUUGCUCUGAUGCCCCCAU | 0.72 ratio |
| AGCUUCUGGUGACAUUUGGCCCGGCCUUUCAGCAUAUGACAACAGUCCAAGGUCACCCCAUAGUCCUUCUGUUGCUUCCCCACCUAGUCAGAGUUCGUCUUGCUCUGAUGCGCCCUUGCU | 0.539 ratio |
| AAAUAUGUAAUCAUUUGAUUAAAAUUGGAUAAGAAAUUACUGUUCAUUUUCCCUUUCAAACAAGCUUAUCCUGUUUUUAAUCUAUUUUUCAAAAUAUCGGUUGUGUAUGGUUGCUUGACA | 0.423 ratio |
| AUCACUCUAAUUGUAAUCUGAAUAAAGUGUAACAUUGUGUAGCCUUUUUUUUGUAUAAAAUAGACAAAUAGAAAUGGUCCAAUUAGUUUCCUUUUUAAUAUGCUUAAAAUAAGCAGGUGG | 1.83 ratio |
| AGGGCUGUGUAGAGUAGGGCCCUGUUCUCCUUAGGAUGUUGCUUCUUGAUUUUUUUUUUUUAGGGGUGGGUCAGGGUUGUGACACACCAGCCCAGGUGAGAGCUGCUGCGGGUCACCUCA | 1.01 ratio |
| UCCCCGUUACCCCUAAGGUAGGACUUUUUAAAAAUUGUGUCGCCACCACUUCCAAAAAUUUAGCAAUAUUGGAAGAAAAUGCUAAUAAAGUAAAAAAAUUUGCUUGCUGUUUUGGAAACC | 0.421 ratio |

Series 3
Target: Phosphate system positive regulatory protein PHO4, full length, GST-tagged (PHO4, Saccharomyces cerevisiae, UniProt P07270, residues 1-312)
Technique: competition protein-binding microarray
Molecule type: double-stranded DNA, one strand shown
Medium: in vitro
Tested at: 2 µM
Setting: whole 60-bp probe, lowest competitor level
With: Cbf1 competitor, 0.05 µM
Direction: higher = stronger binding
Shared flanks, not repeated: … GTCTTGATTCGCTTGACGCTGCTG
Residues (chain): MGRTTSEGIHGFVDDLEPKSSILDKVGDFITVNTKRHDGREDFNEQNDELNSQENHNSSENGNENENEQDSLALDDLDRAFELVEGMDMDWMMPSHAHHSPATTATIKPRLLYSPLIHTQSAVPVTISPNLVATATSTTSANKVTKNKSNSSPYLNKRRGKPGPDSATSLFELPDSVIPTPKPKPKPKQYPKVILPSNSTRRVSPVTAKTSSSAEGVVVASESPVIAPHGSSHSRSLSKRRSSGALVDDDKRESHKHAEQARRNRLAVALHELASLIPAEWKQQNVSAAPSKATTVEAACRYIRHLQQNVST
| Sequence | fluorescence intensity [a.u.] |
| --- | --- |
| CTAACGAAGGTTTGTCTGGTGGGTGACAAGCCAAGT | 4230 |
| TCGCCACCTCTGGTACCCGTGACGAAGCCAAGAAAT | 6940 |
| CTAACGAAGGTTTGTTCAGTGGGTGACAAGCCAAGT | 3460 |
| TTCCAGTCCTTCCATCACGCATTCCATATAATAACC | 7070 |
| GTCTTGTCTCATTCGCACGTGTTTTTCCCCACTTCA | 14300 |
| CTTCTGTAAATTTTACACGTGTTTTGACGCGCCCCG | 16000 |
| AGGGTGGGTTTGATTTTCATCTTGATGCAACCTCTC | 3210 |
| CCACCACTCCAACAGAGCGTGTTGAAATTCAAAAAT | 8180 |

Single results of other studies
| Molecule | target | test | test system | conditions | how to read | quantity | result |
| --- | --- | --- | --- | --- | --- | --- | --- |
| PhoQ, residues 284 288 289 292 302 303 TLMATV | PhoP, residues 12 14 15 18 19 VQALL (Escherichia coli, UniProt P23836) | Sort-seq, measured: YFP reporter | E. coli | PhoQ-PhoP variant library, with: 10 µM Mg2+ | baseline: high Mg2+ state, higher = stronger signaling | fold induction | 2.85 |

Some of these lines once more (series 3):
| Sequence | fluorescence intensity [a.u.] |
| --- | --- |
| TCGCCACCTCTGGTACCCGTGACGAAGCCAAGAAAT | 6940 |
| CTAACGAAGGTTTGTTCAGTGGGTGACAAGCCAAGT | 3460 |
